Measured values pooled from the literature.
Lines come from different studies, so protocols differ. Values joined by “and” are separate records of one study, mostly repeats; a detail may differ. ± marks the error that the study gave.
DDB1: DNA damage-binding protein 1 (DDB1, Homo sapiens, UniProt Q16531)
TOP2A: DNA topoisomerase 2-alpha (TOP2A, Homo sapiens, UniProt P11388)
UniProt P11388, sequence (whole entry, looked up): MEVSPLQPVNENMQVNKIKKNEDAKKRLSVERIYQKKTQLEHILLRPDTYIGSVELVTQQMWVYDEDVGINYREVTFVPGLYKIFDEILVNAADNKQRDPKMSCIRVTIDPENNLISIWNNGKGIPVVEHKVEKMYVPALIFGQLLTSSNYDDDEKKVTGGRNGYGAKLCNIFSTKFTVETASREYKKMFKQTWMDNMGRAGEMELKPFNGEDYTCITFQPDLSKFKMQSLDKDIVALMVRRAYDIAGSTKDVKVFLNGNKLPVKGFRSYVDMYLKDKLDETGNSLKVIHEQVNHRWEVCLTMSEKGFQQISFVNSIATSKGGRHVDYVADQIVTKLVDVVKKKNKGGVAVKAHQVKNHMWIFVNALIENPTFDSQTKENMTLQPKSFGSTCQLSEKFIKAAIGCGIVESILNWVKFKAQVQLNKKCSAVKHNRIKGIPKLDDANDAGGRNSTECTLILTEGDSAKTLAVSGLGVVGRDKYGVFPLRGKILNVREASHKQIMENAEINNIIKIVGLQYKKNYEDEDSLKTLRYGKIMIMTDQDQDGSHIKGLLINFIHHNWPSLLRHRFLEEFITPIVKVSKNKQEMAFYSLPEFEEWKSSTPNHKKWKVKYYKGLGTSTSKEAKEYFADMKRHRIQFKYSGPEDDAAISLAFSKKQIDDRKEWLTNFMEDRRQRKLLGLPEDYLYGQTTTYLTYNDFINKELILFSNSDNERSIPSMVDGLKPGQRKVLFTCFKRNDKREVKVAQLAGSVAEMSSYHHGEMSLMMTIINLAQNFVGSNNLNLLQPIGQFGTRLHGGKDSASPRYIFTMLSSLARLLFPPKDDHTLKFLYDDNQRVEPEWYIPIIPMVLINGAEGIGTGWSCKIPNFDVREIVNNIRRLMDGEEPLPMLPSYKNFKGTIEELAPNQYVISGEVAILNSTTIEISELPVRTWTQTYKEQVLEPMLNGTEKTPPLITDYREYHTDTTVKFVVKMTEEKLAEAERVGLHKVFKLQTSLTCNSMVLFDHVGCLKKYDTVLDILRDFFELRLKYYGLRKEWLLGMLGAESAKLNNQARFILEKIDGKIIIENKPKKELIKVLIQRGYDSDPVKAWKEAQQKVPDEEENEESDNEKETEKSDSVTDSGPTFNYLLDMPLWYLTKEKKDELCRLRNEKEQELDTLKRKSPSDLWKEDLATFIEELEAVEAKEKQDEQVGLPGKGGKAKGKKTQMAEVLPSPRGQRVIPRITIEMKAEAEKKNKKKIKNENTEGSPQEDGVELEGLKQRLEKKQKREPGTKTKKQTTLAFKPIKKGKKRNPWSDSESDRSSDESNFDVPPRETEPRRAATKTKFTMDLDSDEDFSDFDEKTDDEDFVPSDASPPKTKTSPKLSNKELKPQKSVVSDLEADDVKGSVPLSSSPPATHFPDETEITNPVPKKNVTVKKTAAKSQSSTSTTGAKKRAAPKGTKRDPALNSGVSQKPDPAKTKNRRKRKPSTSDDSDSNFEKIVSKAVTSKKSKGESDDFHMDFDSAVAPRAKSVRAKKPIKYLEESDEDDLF
Pteridine reductase 1: Pteridine reductase 1 (Leishmania major, UniProt Q01782)
UniProt Q01782, sequence (whole entry, looked up): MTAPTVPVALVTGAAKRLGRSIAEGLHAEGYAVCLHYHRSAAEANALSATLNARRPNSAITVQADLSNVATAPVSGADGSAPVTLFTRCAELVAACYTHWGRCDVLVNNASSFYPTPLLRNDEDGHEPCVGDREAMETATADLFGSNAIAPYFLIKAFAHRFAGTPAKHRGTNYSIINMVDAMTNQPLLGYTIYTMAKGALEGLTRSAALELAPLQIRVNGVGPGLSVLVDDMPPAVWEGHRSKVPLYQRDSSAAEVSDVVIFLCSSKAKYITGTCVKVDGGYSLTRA
Cereblon/Ikaros: Cereblon/Ikaros (Homo sapiens, UniProt Q13422+Q96SW2)
PKN1: Serine/threonine-protein kinase N1 (PKN1, Homo sapiens, UniProt Q16512)
UniProt Q8NFU1, sequence (whole entry, looked up): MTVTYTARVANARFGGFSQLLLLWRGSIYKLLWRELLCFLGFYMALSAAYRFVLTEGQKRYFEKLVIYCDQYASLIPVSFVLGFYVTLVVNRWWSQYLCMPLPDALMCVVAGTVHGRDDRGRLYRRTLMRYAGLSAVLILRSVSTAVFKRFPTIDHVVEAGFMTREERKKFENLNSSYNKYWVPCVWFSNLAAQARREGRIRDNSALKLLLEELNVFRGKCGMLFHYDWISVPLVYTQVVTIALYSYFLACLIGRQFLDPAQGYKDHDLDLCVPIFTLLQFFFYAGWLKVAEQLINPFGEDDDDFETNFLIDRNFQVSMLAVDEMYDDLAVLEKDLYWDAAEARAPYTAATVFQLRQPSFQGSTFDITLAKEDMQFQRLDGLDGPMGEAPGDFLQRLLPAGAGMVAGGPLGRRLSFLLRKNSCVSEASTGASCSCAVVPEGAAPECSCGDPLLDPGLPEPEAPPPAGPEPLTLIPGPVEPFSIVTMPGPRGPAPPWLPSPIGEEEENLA
UniProt P51575, sequence (whole entry, looked up): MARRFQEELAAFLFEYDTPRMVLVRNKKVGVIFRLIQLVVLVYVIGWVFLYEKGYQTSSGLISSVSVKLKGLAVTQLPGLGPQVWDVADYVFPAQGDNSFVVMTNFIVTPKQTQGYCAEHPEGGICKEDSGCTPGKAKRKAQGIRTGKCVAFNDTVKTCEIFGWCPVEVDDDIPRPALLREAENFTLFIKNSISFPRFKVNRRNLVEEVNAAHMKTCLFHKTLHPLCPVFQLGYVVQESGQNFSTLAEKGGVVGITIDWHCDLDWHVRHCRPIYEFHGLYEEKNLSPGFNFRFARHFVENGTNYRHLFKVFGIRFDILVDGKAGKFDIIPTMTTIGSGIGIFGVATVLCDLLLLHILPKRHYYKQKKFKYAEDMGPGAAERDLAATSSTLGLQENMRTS
UniProt O76090, sequence (whole entry, looked up): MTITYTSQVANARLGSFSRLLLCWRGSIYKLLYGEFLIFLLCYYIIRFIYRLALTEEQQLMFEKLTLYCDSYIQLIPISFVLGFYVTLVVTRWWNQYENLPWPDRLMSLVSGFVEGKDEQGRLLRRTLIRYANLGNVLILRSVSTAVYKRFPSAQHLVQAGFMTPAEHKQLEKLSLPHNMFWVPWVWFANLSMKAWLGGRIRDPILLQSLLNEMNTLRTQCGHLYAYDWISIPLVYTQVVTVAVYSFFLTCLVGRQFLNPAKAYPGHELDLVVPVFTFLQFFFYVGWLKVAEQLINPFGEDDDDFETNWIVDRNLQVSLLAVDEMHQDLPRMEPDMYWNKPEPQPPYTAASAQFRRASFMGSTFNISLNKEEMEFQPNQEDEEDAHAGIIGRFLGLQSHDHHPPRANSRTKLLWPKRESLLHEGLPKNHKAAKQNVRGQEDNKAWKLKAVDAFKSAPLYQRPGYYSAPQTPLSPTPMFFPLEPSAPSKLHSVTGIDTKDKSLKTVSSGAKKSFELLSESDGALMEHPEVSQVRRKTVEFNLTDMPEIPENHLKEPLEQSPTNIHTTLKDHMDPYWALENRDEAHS
UniProt Q16512, sequence (whole entry, looked up): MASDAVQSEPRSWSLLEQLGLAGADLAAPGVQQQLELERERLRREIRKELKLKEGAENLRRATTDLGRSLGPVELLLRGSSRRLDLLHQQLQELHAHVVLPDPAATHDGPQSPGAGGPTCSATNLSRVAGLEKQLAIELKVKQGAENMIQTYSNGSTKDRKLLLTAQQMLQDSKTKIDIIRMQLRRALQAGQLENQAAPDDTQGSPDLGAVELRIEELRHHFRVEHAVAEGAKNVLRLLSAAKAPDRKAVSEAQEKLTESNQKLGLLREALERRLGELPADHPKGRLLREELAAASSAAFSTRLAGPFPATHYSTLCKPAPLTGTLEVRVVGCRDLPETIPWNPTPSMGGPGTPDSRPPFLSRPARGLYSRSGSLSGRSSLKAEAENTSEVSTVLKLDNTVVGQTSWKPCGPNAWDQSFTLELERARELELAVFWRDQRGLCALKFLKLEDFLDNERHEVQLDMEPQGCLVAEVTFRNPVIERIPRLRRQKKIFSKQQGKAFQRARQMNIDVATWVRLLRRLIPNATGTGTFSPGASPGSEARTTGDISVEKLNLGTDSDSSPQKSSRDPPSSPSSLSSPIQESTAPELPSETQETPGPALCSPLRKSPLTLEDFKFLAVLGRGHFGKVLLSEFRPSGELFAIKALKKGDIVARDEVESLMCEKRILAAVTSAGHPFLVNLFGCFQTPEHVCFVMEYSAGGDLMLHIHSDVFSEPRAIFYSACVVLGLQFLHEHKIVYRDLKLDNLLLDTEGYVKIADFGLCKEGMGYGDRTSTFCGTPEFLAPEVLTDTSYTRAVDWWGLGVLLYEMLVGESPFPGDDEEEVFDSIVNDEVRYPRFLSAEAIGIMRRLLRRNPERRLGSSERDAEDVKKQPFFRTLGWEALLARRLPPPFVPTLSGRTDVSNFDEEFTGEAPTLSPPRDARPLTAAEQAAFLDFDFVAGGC
UniProt Q96RI1, sequence (whole entry, looked up): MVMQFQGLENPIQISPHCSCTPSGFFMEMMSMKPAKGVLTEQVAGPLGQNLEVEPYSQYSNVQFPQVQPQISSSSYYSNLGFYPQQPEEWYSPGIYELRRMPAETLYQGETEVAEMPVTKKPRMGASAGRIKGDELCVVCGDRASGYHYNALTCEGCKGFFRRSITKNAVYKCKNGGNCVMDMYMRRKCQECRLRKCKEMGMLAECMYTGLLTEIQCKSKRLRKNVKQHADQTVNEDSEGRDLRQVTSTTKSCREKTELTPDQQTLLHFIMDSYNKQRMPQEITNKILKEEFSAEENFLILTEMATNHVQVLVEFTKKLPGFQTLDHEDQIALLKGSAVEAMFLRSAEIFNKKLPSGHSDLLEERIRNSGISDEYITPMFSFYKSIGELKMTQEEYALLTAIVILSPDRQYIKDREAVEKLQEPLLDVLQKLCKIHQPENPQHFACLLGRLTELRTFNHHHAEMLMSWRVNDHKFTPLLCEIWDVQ
UniProt P22748, sequence (whole entry, unmodified, looked up): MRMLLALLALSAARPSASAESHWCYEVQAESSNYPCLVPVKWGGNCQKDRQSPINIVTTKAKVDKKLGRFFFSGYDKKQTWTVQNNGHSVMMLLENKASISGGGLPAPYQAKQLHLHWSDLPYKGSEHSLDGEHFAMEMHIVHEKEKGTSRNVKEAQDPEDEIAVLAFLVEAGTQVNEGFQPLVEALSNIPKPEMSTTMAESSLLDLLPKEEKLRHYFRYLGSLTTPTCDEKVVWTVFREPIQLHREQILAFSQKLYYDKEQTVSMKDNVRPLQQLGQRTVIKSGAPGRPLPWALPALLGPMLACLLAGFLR

CCOc1cccc(C2CC(=O)Nc3c2c(C)nn3-c2ccc3nncn3n2)c1 (centres unmarked) has an SPR response of 1.66 RU (DDB1; binding, surface plasmon resonance; 0.938 µM).
C=CC(=O)N1CCC[C@@H](n2nc(-c3ccc(Oc4ccccc4)cc3)c3c(N)ncnc32)C1 gave a remaining activity of 62% (MAP4K3 (Homo sapiens, UniProt Q8IVH8); 10 µM).
O=c1nc(SCc2ccc(C(F)(F)F)cc2)nc(SCc2ccc3sccc3c2)[nH]1 gave a decatenated DNA of 100% (TOP2A; decatenation; 7.8 µM, replicate 1).
CNC[C@H](O)c1cccc(O)c1 has an Emax of ~25% (ADRA1B (Homo sapiens, UniProt P35368); calcium mobilization, agonist; COS-7, transiently expressing receptor; reference: 3 µM ionomycin).
CN(C)C(=O)C(CCN1CCC(O)(c2ccc(Cl)cc2)CC1)(c1ccccc1)c1ccccc1 gave a Hill coefficient of 1.33 ± 0.75 (Calcium-activated potassium channel subunit alpha-1, with LRRC26 γ1 subunit (KCNMA1, Homo sapiens, UniProt Q12791); BK channel conductance, inside-out patch clamp; BKα/γ1, Vm -20 mV, nominally Ca2+-free).
With O=c1nc(SCc2cc(F)cc(C(F)(F)F)c2)nc(SCc2cccc(C(F)(F)F)c2)[nH]1 the decatenated DNA was 32.6% (TOP2A; decatenation; 15.6 µM, replicate 2).
The remaining activity of Cc1cc(Nc2cc(N3CCN(C)CC3)nc(Sc3ccc(NC(=O)C4CC4)cc3)n2)[nH]n1 is reported as 23% (RET (Homo sapiens, UniProt P07949, V804L); kinase activity; 0.03 µM, V804L; reference: control).
For O=c1nc(SCc2cc(F)cc(C(F)(F)F)c2)nc(SCc2csc3ccc(Cl)cc23)[nH]1, the relaxed DNA was 75.6% (TOP2A; DNA relaxation; 7.8 µM, replicate 2).
CC1(C)CC2(C)OC(=O)NC2(C)c2ccccc21 (centres unmarked) — result for “log fold enrichment”: -0.313 (DDB1; binding, affinity selection mass spectrometry; reference: other proteins in batch).
Under “relative binding affinity”, Nc1ncc2ncn([C@@H]3O[C@@H]4COP(=O)(O)O[C@H]4[C@H]3O)c2n1 is recorded as 0.0076 (anti-cGMP antibody; antibody binding, competitive cGMP EIA; concentration not given, acetylated samples; reference: EC50 cGMP over EC50 cpd, higher = stronger binding).
With Cc1nc(CSc2nc(SCc3ccc(C(F)(F)F)cc3)nc(=O)[nH]2)cs1 the decatenated DNA was 65.1% (TOP2A; decatenation; 31.25 µM, replicate 2).
Nc1nc2c(ncn2[C@@H]2O[C@H](COP(=O)(O)O)[C@@H](O)[C@H]2O)c(=O)[nH]1 has a kcat of 31.9 s⁻¹ (GUK1 (Homo sapiens, UniProt Q16774, T83A); enzyme activity, NADH-coupled).
With COc1ccc(CNC(=O)c2ccc(CNCc3cnc4nc(N)nc(N)c4n3)cc2)cc1OC the partition index was 0.87 (Pteridine reductase 1; hDHFR weight 10; reference: LmPTR1, LmDHFR over hDHFR, 1.0 selective, 0.0 non-selective).
For CC(=C/C(=O)O)/C=C/C=C(\C)C1C=C2C(C)(C)CCCC2(C)O1 (centres unmarked), “plasma membrane localization” read 0.94 (Rhodopsin (RHO, Homo sapiens, UniProt P08100, E181K); immunostaining, refers to: opsin; COS-7 transfected; 30.00 µM, unit not given; reference: surface over total stained cells).
NS(=O)(=O)C(F)(F)F — result for “intrinsic binding TΔS”: 5.02 kcal/mol (CA4 (Homo sapiens, UniProt P22748); ITC; concentration not given, 25 °C).
For CC(NC(=O)CCCc1ccc2ccc3cccc4ccc1c2c34)C(=O)NO (centres unmarked), the binding stoichiometry was 0.9 (HDAC8 (Homo sapiens, UniProt Q9BY41); ITC; Tris buffer; concentration not given, pH 7.5).
With COc1ccc(/C=C/c2ccc(/C=C/c3ccc(OC)c(C(=O)O)c3)c([125I])c2)cc1C(=O)O the Bmax ratio was 23 ± 2 fold (human tau 2N4R filaments; binding, filter trap; reference: synthetic 2N4R filaments over authentic PHF-tau).
For CN[C@@H](C)C(=O)N[C@H]1CN(C(=O)CC(C)C)CC[C@H]2CC[C@@H](C(=O)NC(c3ccccc3)c3ccccc3)N2C1=O, protein level read “decreased” (BIRC2 (Homo sapiens, UniProt Q13490); protein degradation, western blot; mouse xenograft, tumour; oral, 100 mg/kg).
The partition index of Nc1nc(N)c2nc(CNc3ccc(C(=O)N4CCC(C(=O)O)CC4)cc3)cnc2n1 is reported as 0.89 (Pteridine reductase 1; hDHFR weight 10; reference: LmPTR1, LmDHFR over hDHFR, 1.0 selective, 0.0 non-selective).
Nc1ncnc2c1ncn2[C@@H]1O[C@H](COP(=O)(O)CP(=O)(O)OP(=O)(O)O)[C@@H](O)[C@H]1O has a calcium influx of 46.9% and 55% and 36.8% and 32.2% (P2X purinoceptor 1 (P2RX1, Homo sapiens, UniProt P51575); calcium influx; 100 nM; reference: ionomycin response).
For COc1cc(C(=O)NS(=O)(=O)c2ccccc2C)ccc1Cc1cn(C)c2ccc(NC(=O)OC3CCCC3)cc12, the Hill coefficient was 1.67 (LRRC8A/LRRC8C (Homo sapiens, UniProt Q8IWT6+Q8TDW0); ion current, inhibitor, whole-cell patch clamp; HCT116 LRRC8 knockout, transfected; -100 mV, LRRC8A/LRRC8C heteromer).
The Dmax of CC(C)(NCCc1ccc(C(F)(F)F)c(Cl)c1)c1cccc(NC2=CC(=O)N(C3CCC(=O)NC3=O)C2=O)c1 (centres unmarked) is reported as 86% (Cereblon/Ikaros; protein degradation, degrader, HiBiT luminescence; Jurkat).
CC1=C(/C=C/C(C)=C/C=C/C(C)=C/C(=O)O)C(C)(C)CCC1 — result for “binding affinity fold change”: > 34 fold (CRABP2 (Homo sapiens, UniProt P29373, L122E/R133K/W110L); tryptophan fluorescence quenching; concentration not given; reference: R132K:W109L:L121E over R132K:W109L, higher = stronger binding).
The thermal shift of CCC(N)C(=O)O (racemic) is reported as 5.03 °C (Uncharacterized protein (Pelagibacter ubique, UniProt Q4FM26); differential scanning fluorimetry; Candidatus Pelagibacter ubique; in-house screen).
With O=C1CCC(N2C(=O)C=C(Nc3cccc(C4CCN(CCc5ccc(C(F)(F)F)c(Cl)c5)CC4)c3)C2=O)C(=O)N1 (centres unmarked) the Dmax was 61% (Cereblon/Ikaros; protein degradation, degrader, HiBiT luminescence; Jurkat).
For CC(C)c1ccc(CSc2nc(SCc3ccc4sccc4c3)[nH]c(=O)n2)cc1, the decatenated DNA was 0.15% (TOP2A; decatenation; 125 µM, replicate 1).
CC[C@@H]1[C@H](F)C(=O)N[C@@H]1COc1nccc2cc(C(N)=O)c(OC)cc12 gave an inhibition of 4.5% (CHEK2 (Homo sapiens, UniProt O96017); ATP-site probe binding, ActivX profiling; THP-1 cell lysate; 0.01 mM, Lys1 site).
NC1(C(=O)N[C@@H](CCO)c2ccc(Cl)cc2)CCN(c2ncnc3[nH]ccc23)CC1 has a Hill slope of -0.776 (PKN1; inhibitor).
For O=c1nc(SCc2cc(F)cc(C(F)(F)F)c2)nc(SCc2ccc3sccc3c2)[nH]1, “ATP hydrolysis rate” read 0.664 µM/min and 0.653 µM/min (TOP2A; ATPase activity; 3.9 µM, together with: ATP 0.075 mM).
With O=C(O)C1=CCNCC1 the current density was 0.06 pA/pF and 0.03 pA/pF and 0.08 pA/pF and 0.01 pA/pF (Bestrophin-2a (BEST2, Homo sapiens, UniProt Q8NFU1); whole-cell patch clamp; HEK293 transiently expressing channel; concentration not given, membrane potential 0 mV).
CC(C)C(=O)Nc1n[nH]c2cc(-c3cccc(NS(=O)(=O)C4CC4)c3)ccc12 has an ADP produced of 1.46 µM (PIP5K1C (Homo sapiens, UniProt O60331); ADP-Glo; 3.33 µM, together with: 10 µM ATP).
COc1cc(F)ccc1-c1ncnc(Nc2cccc(C[S@](C)(=N)=O)c2)n1 has a remaining activity of 99% (PIK3C2A (Homo sapiens, UniProt O00443); kinase activity; 10 µM, together with: 10 µM ATP).
The Emax of c1ccc(CCCCCOCCc2ccc3ccoc3c2)cc1 is reported as ≤ 57% (ATP2A2 (Sus scrofa, UniProt P11607); ATPase Vmax increase, activator; pig microsomes; 0.1 to 50 µM; reference: vehicle).
The activity decrease of C=C(NC(=O)C(=C)NC(=O)c1csc(C2=N[C@@H]3c4csc(n4)[C@H]4NC(=O)c5csc(n5)[C@H]([C@](C)(O)[C@@H](C)O)NC(=O)[C@H]5CSC(=N5)/C(=C/C)NC(=O)[C@H]([C@@H](C)O)NC(=O)c5csc(n5)[C@]3(CC2)NC(=O)[C@H](C)NC(=O)C(=C)NC(=O)[C@H](C)NC(=O)[C@H]([C@@H](C)CC)N[C@@H]2C=Cc3c([C@H](C)O)cc(nc3[C@H]2O)C(=O)O[C@@H]4C)n1)C(N)=O is reported as > 70% (PSMB5 (Homo sapiens, UniProt P28074); chymotrypsin-like activity, inhibitor; purified 20S proteasome; 20 µM, 1 h, 37 °C).
Under “ΔH of binding”, COc1cc(/C=C/c2ccc(O)cc2)cc(OC)c1 is recorded as -5.39 ± 0.145 kcal/mol (O-methyltransferase (Sorghum bicolor, UniProt A0A1B6PFV1); concentration not given, together with: SAM+).
With Nc1ccc(C(=O)O)cc1 the current density was -39.9 pA/pF and -32.2 pA/pF and -37.1 pA/pF and -28.6 pA/pF and -18.9 pA/pF and -20.5 pA/pF and -19.9 pA/pF (BEST1 (Homo sapiens, UniProt O76090); whole-cell patch clamp; HEK293 transiently expressing channel; concentration not given, membrane potential -40 mV).
O=C(OC[C@H]1O[C@@H](OC(=O)c2cc(OS(=O)(=O)[O-])c(O)c(OS(=O)(=O)[O-])c2)[C@H](OC(=O)c2cc(OS(=O)(=O)[O-])c(O)c(OS(=O)(=O)[O-])c2)[C@@H](OC(=O)c2cc(OS(=O)(=O)[O-])c(O)c(OS(=O)(=O)[O-])c2)[C@@H]1OC(=O)c1cc(OS(=O)(=O)[O-])c(O)c(OS(=O)(=O)[O-])c1)c1cc(OS(=O)(=O)[O-])c(O)c(OS(=O)(=O)[O-])c1.[Na+].[Na+].[Na+].[Na+].[Na+].[Na+].[Na+].[Na+].[Na+].[Na+]: “duration of full inhibition” > 48 h (Neutrophil elastase (ELANE, Homo sapiens, UniProt P08246); elastin cleavage, inhibitor, elastin-Congo red; concentration not given).
With O=C(O)c1ccc(Nc2ncc3c(n2)-c2ccc(Cl)cc2C(c2c(F)cccc2F)=NC3)cc1 the remaining activity was 100% (PAK2(h); kinase activity; 1 µM).
With Cl.Cl.O=S(=O)(NCCNC/C=C/c1ccc(Br)cc1)c1cccc2cnccc12 the Hill slope was -0.839 (PKN1; inhibitor).
CCC(=O)NS(=O)(=O)c1ccc(-c2c(-c3ccccc3)noc2C)cc1 gave an activation of 1.35 fold (Bile acid receptor (NR1H4, Homo sapiens, UniProt Q96RI1); reporter gene, Gal4 hybrid reporter; 50 µM; reference: vehicle).
The degradation of Cc1c(COc2ccc(CN3CCCCC3C(=O)NCCCCNC(=O)CN(C)CCCC34CCC(c5ccccc53)c3ccccc34)cc2Br)cccc1-c1ccccc1 (centres unmarked) is reported as 14.4 ± 1.2% (CD274 (Homo sapiens, UniProt Q9NZQ7); degrader, western blot; HL-60; 1 µM).

For quick reference, copied from above:
For O=c1nc(SCc2cc(F)cc(C(F)(F)F)c2)nc(SCc2ccc3sccc3c2)[nH]1, “ATP hydrolysis rate” read 0.664 µM/min and 0.653 µM/min (TOP2A; ATPase activity; 3.9 µM, together with: ATP 0.075 mM).
With O=C(O)C1=CCNCC1 the current density was 0.06 pA/pF and 0.03 pA/pF and 0.08 pA/pF and 0.01 pA/pF (Bestrophin-2a (BEST2, Homo sapiens, UniProt Q8NFU1); whole-cell patch clamp; HEK293 transiently expressing channel; concentration not given, membrane potential 0 mV).
CC(C)C(=O)Nc1n[nH]c2cc(-c3cccc(NS(=O)(=O)C4CC4)c3)ccc12 has an ADP produced of 1.46 µM (PIP5K1C (Homo sapiens, UniProt O60331); ADP-Glo; 3.33 µM, together with: 10 µM ATP).
COc1cc(F)ccc1-c1ncnc(Nc2cccc(C[S@](C)(=N)=O)c2)n1 has a remaining activity of 99% (PIK3C2A (Homo sapiens, UniProt O00443); kinase activity; 10 µM, together with: 10 µM ATP).
The Emax of c1ccc(CCCCCOCCc2ccc3ccoc3c2)cc1 is reported as ≤ 57% (ATP2A2 (Sus scrofa, UniProt P11607); ATPase Vmax increase, activator; pig microsomes; 0.1 to 50 µM; reference: vehicle).
